Results of several laboratories.
Lines come from different studies, so protocols differ. Several values in a cell are separate wells, animals, samples, runs or records. Numbers after ± are the reported error.
CSNK1D: Casein kinase I isoform delta (CSNK1D, Homo sapiens, UniProt P48730)
Chain of UniProt P48730 (whole entry, looked up): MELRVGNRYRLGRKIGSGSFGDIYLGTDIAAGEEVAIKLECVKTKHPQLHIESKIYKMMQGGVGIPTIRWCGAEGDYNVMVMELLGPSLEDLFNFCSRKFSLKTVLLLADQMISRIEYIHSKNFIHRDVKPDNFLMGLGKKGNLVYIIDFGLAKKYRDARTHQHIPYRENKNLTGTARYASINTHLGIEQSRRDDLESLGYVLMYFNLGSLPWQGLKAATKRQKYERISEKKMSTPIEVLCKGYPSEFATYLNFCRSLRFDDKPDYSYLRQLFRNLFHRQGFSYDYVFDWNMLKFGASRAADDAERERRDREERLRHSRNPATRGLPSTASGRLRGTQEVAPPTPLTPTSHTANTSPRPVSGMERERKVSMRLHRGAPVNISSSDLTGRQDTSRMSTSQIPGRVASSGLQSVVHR
PSMB5: Proteasome Macropain subunit MB1 (PSMB5, Homo sapiens, UniProt P28074)
Chain of UniProt P28074 (whole entry, looked up): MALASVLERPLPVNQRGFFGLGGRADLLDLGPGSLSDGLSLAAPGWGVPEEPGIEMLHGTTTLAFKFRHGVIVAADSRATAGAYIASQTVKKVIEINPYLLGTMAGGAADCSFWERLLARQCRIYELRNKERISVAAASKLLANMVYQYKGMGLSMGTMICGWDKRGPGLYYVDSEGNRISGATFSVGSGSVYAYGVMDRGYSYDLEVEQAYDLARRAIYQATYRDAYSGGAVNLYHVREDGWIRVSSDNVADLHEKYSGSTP
CYP2E1: Cytochrome P450 2E1 (CYP2E1, Homo sapiens, UniProt P05181)
Chain of UniProt P05181 (whole entry, looked up): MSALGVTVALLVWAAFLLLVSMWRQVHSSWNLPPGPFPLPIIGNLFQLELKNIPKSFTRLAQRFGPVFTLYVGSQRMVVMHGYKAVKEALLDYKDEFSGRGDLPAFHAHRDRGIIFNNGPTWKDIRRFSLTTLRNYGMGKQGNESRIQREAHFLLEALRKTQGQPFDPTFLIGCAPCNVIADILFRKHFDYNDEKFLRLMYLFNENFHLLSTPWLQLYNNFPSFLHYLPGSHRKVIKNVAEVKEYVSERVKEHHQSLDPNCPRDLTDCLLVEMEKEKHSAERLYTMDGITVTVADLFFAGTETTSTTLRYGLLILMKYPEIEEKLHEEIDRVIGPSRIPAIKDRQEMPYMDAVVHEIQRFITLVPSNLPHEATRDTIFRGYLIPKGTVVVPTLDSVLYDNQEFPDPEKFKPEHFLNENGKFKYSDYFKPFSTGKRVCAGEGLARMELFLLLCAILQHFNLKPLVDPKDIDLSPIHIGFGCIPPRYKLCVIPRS
TGM2: Protein-glutamine gamma-glutamyltransferase (TGM2, Homo sapiens, UniProt P21980)
Chain of UniProt P21980 (whole entry, looked up): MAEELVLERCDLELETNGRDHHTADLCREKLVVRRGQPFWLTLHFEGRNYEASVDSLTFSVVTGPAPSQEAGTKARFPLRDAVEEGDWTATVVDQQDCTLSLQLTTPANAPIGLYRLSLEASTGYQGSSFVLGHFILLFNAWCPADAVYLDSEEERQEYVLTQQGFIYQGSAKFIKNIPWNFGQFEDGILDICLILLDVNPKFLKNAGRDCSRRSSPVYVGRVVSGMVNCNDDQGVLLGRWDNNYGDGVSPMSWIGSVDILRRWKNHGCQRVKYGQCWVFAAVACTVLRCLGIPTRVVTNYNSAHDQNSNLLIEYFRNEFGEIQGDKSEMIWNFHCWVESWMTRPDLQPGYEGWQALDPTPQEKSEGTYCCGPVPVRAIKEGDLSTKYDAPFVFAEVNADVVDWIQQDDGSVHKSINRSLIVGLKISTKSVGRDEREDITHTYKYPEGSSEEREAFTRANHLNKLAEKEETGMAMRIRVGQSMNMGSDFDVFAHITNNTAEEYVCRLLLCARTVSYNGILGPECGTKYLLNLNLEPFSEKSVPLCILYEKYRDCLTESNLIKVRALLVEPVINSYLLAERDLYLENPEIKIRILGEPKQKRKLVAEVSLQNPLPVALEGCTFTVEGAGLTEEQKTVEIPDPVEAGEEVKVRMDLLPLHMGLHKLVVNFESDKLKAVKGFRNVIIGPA
AR: Androgen receptor (AR, Homo sapiens, UniProt P10275)
Chain of UniProt P10275 (whole entry, looked up): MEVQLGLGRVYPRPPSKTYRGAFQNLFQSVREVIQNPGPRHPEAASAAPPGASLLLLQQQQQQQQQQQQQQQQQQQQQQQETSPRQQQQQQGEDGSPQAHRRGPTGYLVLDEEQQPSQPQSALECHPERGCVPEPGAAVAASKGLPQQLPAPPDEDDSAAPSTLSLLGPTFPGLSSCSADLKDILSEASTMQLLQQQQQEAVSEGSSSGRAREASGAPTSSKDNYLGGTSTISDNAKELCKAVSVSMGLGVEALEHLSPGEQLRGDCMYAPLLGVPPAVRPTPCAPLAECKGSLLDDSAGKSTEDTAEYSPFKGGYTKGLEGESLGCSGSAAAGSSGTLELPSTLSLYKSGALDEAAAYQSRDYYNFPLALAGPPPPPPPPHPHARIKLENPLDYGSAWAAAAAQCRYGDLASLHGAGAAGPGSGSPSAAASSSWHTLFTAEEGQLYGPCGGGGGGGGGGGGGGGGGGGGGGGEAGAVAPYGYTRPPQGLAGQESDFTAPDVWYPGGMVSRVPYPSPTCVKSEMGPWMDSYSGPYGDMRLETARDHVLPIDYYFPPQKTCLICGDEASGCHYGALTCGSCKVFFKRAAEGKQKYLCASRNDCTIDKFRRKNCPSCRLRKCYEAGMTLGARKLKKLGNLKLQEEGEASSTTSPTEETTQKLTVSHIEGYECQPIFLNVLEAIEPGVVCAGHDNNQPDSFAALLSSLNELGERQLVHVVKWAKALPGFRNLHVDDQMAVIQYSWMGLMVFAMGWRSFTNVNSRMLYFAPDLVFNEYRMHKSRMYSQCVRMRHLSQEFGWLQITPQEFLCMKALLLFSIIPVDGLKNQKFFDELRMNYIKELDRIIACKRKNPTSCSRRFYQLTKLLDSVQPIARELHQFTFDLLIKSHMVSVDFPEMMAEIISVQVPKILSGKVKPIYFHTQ
Proteasome component C5/PSMB5: Proteasome component C5/PSMB5 (Homo sapiens, UniProt P20618+P28074)
Chain of UniProt P20618 (whole entry, looked up): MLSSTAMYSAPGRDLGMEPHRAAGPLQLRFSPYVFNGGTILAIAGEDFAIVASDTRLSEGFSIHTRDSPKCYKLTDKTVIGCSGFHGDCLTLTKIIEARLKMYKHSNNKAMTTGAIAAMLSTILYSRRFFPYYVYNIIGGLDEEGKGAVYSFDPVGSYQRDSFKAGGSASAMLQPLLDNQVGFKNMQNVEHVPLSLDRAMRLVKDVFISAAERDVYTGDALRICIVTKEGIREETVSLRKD
Phospholipase A2, membrane associated: Phospholipase A2, membrane associated (Homo sapiens, UniProt P14555)
Chain of UniProt P14555 (whole entry, looked up): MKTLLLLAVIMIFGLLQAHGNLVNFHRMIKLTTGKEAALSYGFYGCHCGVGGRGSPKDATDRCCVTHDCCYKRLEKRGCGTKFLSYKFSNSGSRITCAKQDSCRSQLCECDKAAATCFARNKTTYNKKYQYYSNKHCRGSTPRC
Protein AF-9 with DOT1L: Protein AF-9, with DOT1L (Homo sapiens, UniProt P42568)
Chain of UniProt P42568 (whole entry, looked up): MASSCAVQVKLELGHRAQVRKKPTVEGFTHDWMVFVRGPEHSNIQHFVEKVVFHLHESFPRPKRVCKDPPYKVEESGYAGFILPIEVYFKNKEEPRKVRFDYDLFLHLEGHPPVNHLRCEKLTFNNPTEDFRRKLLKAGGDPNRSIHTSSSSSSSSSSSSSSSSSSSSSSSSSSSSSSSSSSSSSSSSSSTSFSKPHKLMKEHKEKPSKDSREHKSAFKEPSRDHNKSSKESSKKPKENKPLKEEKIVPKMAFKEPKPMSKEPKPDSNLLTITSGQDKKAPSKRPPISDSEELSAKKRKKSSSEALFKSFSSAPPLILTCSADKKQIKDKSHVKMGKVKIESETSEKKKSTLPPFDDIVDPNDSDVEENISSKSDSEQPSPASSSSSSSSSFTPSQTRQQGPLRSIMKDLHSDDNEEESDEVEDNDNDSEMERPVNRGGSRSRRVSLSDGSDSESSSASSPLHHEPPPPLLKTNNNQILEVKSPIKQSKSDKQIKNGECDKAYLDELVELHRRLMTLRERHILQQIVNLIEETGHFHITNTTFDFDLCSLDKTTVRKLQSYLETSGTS
Dihydrofolate reductase type 2: Dihydrofolate reductase type 2 (Escherichia coli, UniProt P00383)
Chain of UniProt P00383 (whole entry, looked up): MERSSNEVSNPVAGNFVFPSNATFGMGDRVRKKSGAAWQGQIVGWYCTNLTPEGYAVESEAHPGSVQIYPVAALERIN
Chain of UniProt P37231 (whole entry, looked up): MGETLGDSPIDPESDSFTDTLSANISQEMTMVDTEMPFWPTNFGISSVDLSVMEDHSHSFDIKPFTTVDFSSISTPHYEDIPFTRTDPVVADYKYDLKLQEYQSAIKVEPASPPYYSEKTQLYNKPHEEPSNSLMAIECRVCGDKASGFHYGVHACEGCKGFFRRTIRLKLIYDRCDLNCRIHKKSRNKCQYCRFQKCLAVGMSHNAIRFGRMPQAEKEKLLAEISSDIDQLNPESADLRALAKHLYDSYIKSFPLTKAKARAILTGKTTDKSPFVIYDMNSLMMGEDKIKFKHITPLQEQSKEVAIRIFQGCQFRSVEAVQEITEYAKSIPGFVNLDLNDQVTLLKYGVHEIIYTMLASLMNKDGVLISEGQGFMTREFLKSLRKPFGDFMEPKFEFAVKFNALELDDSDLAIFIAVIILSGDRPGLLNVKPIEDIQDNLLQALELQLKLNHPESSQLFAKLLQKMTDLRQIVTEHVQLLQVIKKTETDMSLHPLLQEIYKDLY
Chain of UniProt Q15717 (whole entry, looked up): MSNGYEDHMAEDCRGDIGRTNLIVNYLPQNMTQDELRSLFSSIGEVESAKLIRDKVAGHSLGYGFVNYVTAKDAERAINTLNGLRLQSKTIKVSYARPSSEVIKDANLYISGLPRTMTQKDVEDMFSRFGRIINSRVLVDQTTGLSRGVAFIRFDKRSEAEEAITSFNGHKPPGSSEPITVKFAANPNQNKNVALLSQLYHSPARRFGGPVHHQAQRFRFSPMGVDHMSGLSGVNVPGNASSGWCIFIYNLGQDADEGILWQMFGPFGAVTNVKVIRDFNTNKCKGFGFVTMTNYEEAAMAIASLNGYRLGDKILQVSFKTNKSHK
Chain of UniProt Q9UI95 (whole entry, unmodified, looked up): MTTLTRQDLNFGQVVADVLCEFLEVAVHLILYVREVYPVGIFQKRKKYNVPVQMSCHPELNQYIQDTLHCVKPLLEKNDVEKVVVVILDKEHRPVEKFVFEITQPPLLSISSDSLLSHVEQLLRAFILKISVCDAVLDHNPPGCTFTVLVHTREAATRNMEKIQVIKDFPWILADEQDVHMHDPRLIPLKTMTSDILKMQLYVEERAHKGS

SMILES | target | test | system | setting | IC50
Cc1cccc(C)c1-c1nc(-c2ccc(F)cc2)c(-c2ccncc2)[nH]1 | CSNK1D | inhibitor |  |  | 0.0227 ± 0.0015 µM
COc1ccc(C[C@H](NC(=O)[C@H](C)NC(=O)CN2CCOCC2)C(=O)N[C@@H](CC2CCC(F)(F)CC2)C(=O)[C@@]2(C)CO2)cc1 | PSMB5 | competitive ABPP | Raji cell lysate |  | > 10 µM
CCc1oc2ccccc2c1C(=O)c1ccc(O)cc1 | CYP2E1 | p-nitrophenol hydroxylation, inhibitor | baculosomes | 10 min, with additive 1 µM | 4.6 µM
CC1=C[C@@]2(C[C@H](C)[C@H]3CC=C(CO)C(=O)[C@@H]3O2)OC1=O | DNA polymerase epsilon subunit 3 (Homo sapiens, UniProt Q9NRF9) | competitive probe labelling, in-gel fluorescence | 293T overexpressing POLE3-GFP |  | 91 µM
COc1cc(NC(=O)Nc2ccc(C)c(F)c2)cc2sc(NC(=O)c3ccccc3)nc12 | RET (Homo sapiens, UniProt P07949) | kinase activity, inhibitor |  | replicate two, added: 1 µM ATP, poly(Glu,Tyr) | 9.12 µM
O=C1C(SCCO)=C(SCCO)C(=O)c2ccccc21 | TGM2 | enzyme activity, inhibitor, BP incorporation |  | added: no DTT, Triton 0.02% | 2.5 ± 0.6 µM
Cn1c(=O)c2c(ncn2C)n(C)c1=O | SLC2A9 (Homo sapiens, UniProt Q9NRM0) | urate uptake | Xenopus oocytes | 1 h, pH 7.4, added: 40 µM [14C]urate | 335 µM
CCC(F)(F)c1cc(N2C(=O)NC(C)(C)C2=O)ccc1F | AR | reporter gene, antagonist | LAPC4 | 24 h, added: DHT 10 nM | > 100 µM
CCOC(=O)/C=C/C(=O)N(CC(C)C)NC(=O)[C@H](Cc1ccccc1)NC(=O)[C@H](CC(C)C)NC(=O)[C@H](CCc1ccccc1)NC(=O)OCc1ccccc1 | Proteasome component C5/PSMB5 | chymotrypsin-like activity, inhibitor | human 20S proteasome | added: Suc-LLVY-AMC 100 µM | 8.7 ± 2 µM
CCn1c(-c2nc3ccc(C(=O)N4CCCC(N)C4)cc3n2C)cc2ccccc21 (centres unmarked) | SLCO1B1 (Homo sapiens, UniProt Q9Y6L6) | transport, inhibitor, imaging |  |  | > 50.1 µM
COc1cc(NCC(=O)Nn2c(C)nc3ccc(Cl)cc3c2=O)cc(OC)c1OC | Phospholipase A2, membrane associated | enzyme activity, inhibitor, colorimetric |  |  | 69.3 ± 2.83 µM
c1ccc(COc2ccc(Nc3ccc4ncc(OCC5CCNCC5)nc4c3)cc2)cc1 | Protein AF-9 with DOT1L | DOT1L binding, AlphaLISA |  |  | 2.8 µM
CC(C)N(CCC(=O)c1ccc2ccccc2c1)Cc1ccccc1 | TGM2 | enzyme activity, inhibitor |  | 0.02% Triton X-100, without DTT | no effect
C[C@]12CC[C@@H]3c4ccc(O)cc4C[C@@H](CCCCCCCCC[S+]([O-])CCCC(F)(F)C(F)(F)F)[C@H]3[C@@H]1CC[C@@H]2O (some centres unmarked) | AR | agonist |  |  | > 10 µM
CN1CCN(CCCOc2ccc(-c3nc4ccc(C(=O)NCCN5CCOCC5)cc4[nH]3)cc2)CC1 | Dihydrofolate reductase type 2 | enzyme activity |  | pH 7 | > 500 µM
CC(C)N(C)C(=O)c1ccc2nc(-c3ccccc3)cn2c1 | Protein AF-9, YEATS domain (Homo sapiens, UniProt P42568) | YEATS domain binding, inhibitor, HTRF |  |  | > 50 µM
c1ccc(Oc2ccc(Nc3ccc4ncc(OCC5CCNCC5)nc4c3)cc2)cc1 | Protein AF-9 with DOT1L | DOT1L binding, AlphaLISA |  |  | 1.2 ± 0.22 µM
Fc1ccc(-c2nc(-c3ccccc3)[nH]c2-c2ccncc2)cc1 | CSNK1D | inhibitor |  |  | 0.284 ± 0.059 µM
Cc1ccc(C(=O)Nc2ccc(S(=O)(=O)O)c3cc(S(=O)(=O)O)cc(S(=O)(=O)O)c23)cc1NC(=O)c1cccc(NC(=O)Nc2cccc(C(=O)Nc3cc(C(=O)Nc4ccc(S(=O)(=O)O)c5cc(S(=O)(=O)O)cc(S(=O)(=O)O)c45)ccc3C)c2)c1 | mRNA 5′-triphosphatase (Plasmodium falciparum, UniProt C0H484) | enzyme activity, inhibitor |  |  | 0.5 µM
CC(=O)C(=O)NNC(=O)[C@H](CC(C)C)NC(=O)[C@H](CC(C)C)NC(=O)OCc1ccccc1 | Proteasome component C5/PSMB5 | β5 chymotrypsin-like activity, inhibitor |  | added: Suc-LLVY-AMC 100 µM | 2.3 ± 1.5 µM
CCc1ccc(/C=N/n2c(C)nc3ccc(C)cc3c2=O)s1 | Phospholipase A2, membrane associated | enzyme activity, inhibitor, colorimetric |  |  | 58.6 ± 3.4 µM

SMILES | target | test | system | setting | IC50
Cc1nc(CSc2nc(SCc3ccc(C(C)C)cc3)nc(=O)[nH]2)cs1 | TOP2A (Homo sapiens, UniProt P11388) | decatenation, inhibitor |  |  | 34.4 µM
Cc1cccc(-c2nc(-c3ccc(/C(N)=N/O)cc3)[nH]c2-c2ccncc2)c1 | CSNK1D | inhibitor |  |  | 0.889 ± 0.29 µM
c1cc(-c2ccc3ncc(OCC4CCNCC4)nc3c2)cc(N2CCCCC2)c1 | Protein AF-9 with DOT1L | DOT1L binding, AlphaLISA |  |  | 6 µM
CCO | CES1 (Homo sapiens, UniProt P23141) |  |  | pH 7.4 | 23000 µM
CC[C@H](C)[C@H](NC(=O)[C@H](CC(N)=O)NC(=O)[C@H](C)NC(=O)[C@@H](NC(=O)[C@H](CCCNC(=N)N)NC(=O)[C@@H]1CCCN1)[C@@H](C)O)C(=O)N[C@@H](CC(C)C)C(=O)N[C@@H](CCCCN)C(=O)N1CCC[C@H]1C(=O)N[C@@H](CC(C)C)C(=O)N[C@@H](CCSC)C(=O)N[C@@H](CO)C(=O)N1CCC[C@H]1C(=O)N1CCC[C@H]1C(=O)N[C@@H](CO)C(=O)N[C@@H](CCCNC(=N)N)C(=O)O | MAD2L2 (Homo sapiens, UniProt Q9UI95, R124A) | REV7 complex disruption, inhibitor, fluorescence polarization |  | added: FAM-RBM1 peptide | 17.8 µM
O=C(Nc1ccccc1)c1cc([N+](=O)[O-])ccc1Cl | PPARG (Homo sapiens, UniProt P37231) | TR-FRET competitive binding |  | added: Fluormone tracer | 0.005 µM
CCc1oc2ccccc2c1C(=O)c1cc(Br)c(O)c(Br)c1 | CYP2E1 | p-nitrophenol hydroxylation, inhibitor | baculosomes | 10 min, with additive 100 µM | 129 µM
COc1cccc(F)c1-c1nc(-c2ccc(F)cc2)c(-c2ccncc2)[nH]1 | CSNK1D | inhibitor |  |  | 0.0436 ± 0.0069 µM
CC(C)(C)OC(=O)n1cccc1-c1cn(S(=O)(=O)c2ccccc2)c2c1C(=O)C(=O)C=C2 | ELAV-like protein 1, RRM1-RRM2 domains (ELAVL1, Homo sapiens, UniProt Q15717) | HuR-RNA complex formation, REMSA |  | added: 1 nM labelled RNA probe | 1.8 µM
COC(=O)c1ccc2nc(-c3ccc(O)c(Br)c3)[nH]c2c1 | Dihydrofolate reductase type 2 | enzyme activity |  | pH 7 | > 30 µM
COCC(=O)N1CCC[C@H](C(=O)NCc2nc(-c3ccccc3)cs2)C1 | uncharacterized protein (Plasmodium falciparum, UniProt A0A5K1K7U1+Q8I261+Q8IJT1) | Suc-LLVY-AMC |  | added: WLW-vs 0.5 µM | 0.49 ± 0.41 µM
c1cc(N2CCCC2)ccc1-c1cc2ncc(OCC3CCNCC3)nc2cc1-c1ccc(N2CCCC2)cc1 | Protein AF-9 with DOT1L | DOT1L binding, AlphaLISA |  |  | 0.56 ± 0.032 µM
Fc1ccc(-c2nc(-c3ccccc3Br)[nH]c2-c2ccncc2)cc1 | CSNK1D | inhibitor |  |  | 0.0132 ± 0.0026 µM
COc1ccc(C[C@H](NC(=O)[C@H](C)NC(=O)CN2CCOCC2)C(=O)N[C@@H](CC2CCC3CCCCC3C2)C(=O)[C@@]2(C)CO2)cc1 (some centres unmarked) | PSMB5 | competitive ABPP | Raji cell lysate |  | > 10 µM
O=C(Nc1ccc(CCF)cc1)c1cc([N+](=O)[O-])ccc1Cl | Peroxisome proliferator-activated receptor gamma, with RXR (PPARG, Homo sapiens, UniProt P37231) | reporter gene, antagonist, PPRE-TK-luciferase | transfected HepG2 | 24 h, added: GW1929 | 0.02 µM and 0.0199 µM
Cc1cccc(-c2nc(-c3ccc(C(N)=O)cc3)[nH]c2-c2ccncc2)c1 | CSNK1D | inhibitor |  |  | 0.787 ± 0.098 µM
CC1CC(C)CN(c2ccc(C=NNc3nc(-c4ccc(Cl)cc4)cs3)cc2)C1 (centres unmarked) | alpha-glucosidase | enzyme activity, inhibitor |  | added: p-nitrophenyl-alpha-D-glucopyranoside | 13.3 µM
CC[C@@H]1[C@H](F)C(=O)N[C@@H]1COc1nccc2cc(C(N)=O)c(OC)cc12 | CHEK2 (Homo sapiens, UniProt O96017) | ATP-site probe binding, ActivX profiling | THP-1 cell lysate | Lys2 site | 2.6 µM
O=C(O)c1ccc2[nH]c(-c3ccc(OCCC(O)COc4ccc(-c5nc6cc(C(=O)O)ccc6[nH]5)cc4)cc3)nc2c1 (centres unmarked) | Dihydrofolate reductase type 2 | enzyme activity |  | pH 7 | 113 ± 13 µM
CC1CC(C)CN(c2ccc(C=NNc3nc(-c4ccc(-c5ccccc5)cc4)cs3)cc2)C1 (centres unmarked) | alpha-glucosidase | enzyme activity, inhibitor |  | added: p-nitrophenyl-alpha-D-glucopyranoside | 30.1 µM

For quick reference, copied from above:
SMILES | target | test | system | setting | IC50
c1ccc(COc2ccc(Nc3ccc4ncc(OCC5CCNCC5)nc4c3)cc2)cc1 | Protein AF-9 with DOT1L | DOT1L binding, AlphaLISA |  |  | 2.8 µM
CC(C)N(CCC(=O)c1ccc2ccccc2c1)Cc1ccccc1 | TGM2 | enzyme activity, inhibitor |  | 0.02% Triton X-100, without DTT | no effect
C[C@]12CC[C@@H]3c4ccc(O)cc4C[C@@H](CCCCCCCCC[S+]([O-])CCCC(F)(F)C(F)(F)F)[C@H]3[C@@H]1CC[C@@H]2O (some centres unmarked) | AR | agonist |  |  | > 10 µM
CN1CCN(CCCOc2ccc(-c3nc4ccc(C(=O)NCCN5CCOCC5)cc4[nH]3)cc2)CC1 | Dihydrofolate reductase type 2 | enzyme activity |  | pH 7 | > 500 µM
CC(C)N(C)C(=O)c1ccc2nc(-c3ccccc3)cn2c1 | Protein AF-9, YEATS domain (Homo sapiens, UniProt P42568) | YEATS domain binding, inhibitor, HTRF |  |  | > 50 µM
c1ccc(Oc2ccc(Nc3ccc4ncc(OCC5CCNCC5)nc4c3)cc2)cc1 | Protein AF-9 with DOT1L | DOT1L binding, AlphaLISA |  |  | 1.2 ± 0.22 µM
